# Published values pooled from the literature.
# Protocols differ between the studies behind these lines.
# Observed: metabolic stability
Compound,system,conditions,measurement,value
CCC/C(=C\C1=C(F)C(=O)c2ccccc2C1=O)C(=O)N(CC)CC,"mouse, liver microsomes","1 µM, pH 7.4",scaled CLint,24.5 mL/min/kg
CCN(CC)CC#CCNc1ccnc2cc(Cl)ccc12,"CD-1 mouse, liver microsomes","1 µM, pH 7.4",scaled CLint,2740 mL/min/kg
NC(=O)c1c(F)ccc(OCc2nc3cc(Cl)cnc3s2)c1F,"mouse, hepatocytes",10 µM,hepatocyte CLint,9.51 µL/min/10⁶ cells
CCNCC#CCNc1ccnc2cc(Cl)ccc12,"CD-1 mouse, liver microsomes","1 µM, pH 7.4",scaled CLint,273 mL/min/kg
C=C(C)C(=O)Nc1ccc(-c2c(-c3ccc(Oc4nccc(C)n4)cc3)c3c(N)ncnc3n2C)cc1,"mouse, hepatocytes",,hepatocyte CLint,21 µL/min/10⁶ cells
CCC/C(=C\C1=C(C(F)(F)F)C(=O)c2ccccc2C1=O)C(=O)N(CC)CC,"mouse, liver microsomes","1 µM, pH 7.4",scaled CLint,142 mL/min/kg
CCc1nc(N)nc(N)c1C#CC(C)c1cc(-c2cc(C)nc(C)c2)ccc1OC (centres unmarked),"male CD-1 mouse, liver microsomes","5 µg/mL, pH 7.4",microsomal CLint,40 µL/min/mg
CCC(CC)CNC(=N)NC(=N)NCCCCCCNC(=N)NC(=N)NCC(CC)CC,"mouse, hepatocytes",1 µM,scaled CLint,126 mL/min/kg

# For quick reference, copied from above:
Compound,system,conditions,measurement,value
CCN(CC)CC#CCNc1ccnc2cc(Cl)ccc12,"CD-1 mouse, liver microsomes","1 µM, pH 7.4",scaled CLint,2740 mL/min/kg
